Measurements collected from several papers.
Each line is one published result; not all experiments were run side by side. Numbers after ± are the reported error.
APP: Amyloid-beta precursor protein (APP, Homo sapiens, UniProt P05067)
Genome polyprotein NS2B-NS3 protease: Genome polyprotein, NS2B-NS3 protease (West Nile virus, UniProt P06935)
Chain of UniProt P35372 (whole entry, looked up): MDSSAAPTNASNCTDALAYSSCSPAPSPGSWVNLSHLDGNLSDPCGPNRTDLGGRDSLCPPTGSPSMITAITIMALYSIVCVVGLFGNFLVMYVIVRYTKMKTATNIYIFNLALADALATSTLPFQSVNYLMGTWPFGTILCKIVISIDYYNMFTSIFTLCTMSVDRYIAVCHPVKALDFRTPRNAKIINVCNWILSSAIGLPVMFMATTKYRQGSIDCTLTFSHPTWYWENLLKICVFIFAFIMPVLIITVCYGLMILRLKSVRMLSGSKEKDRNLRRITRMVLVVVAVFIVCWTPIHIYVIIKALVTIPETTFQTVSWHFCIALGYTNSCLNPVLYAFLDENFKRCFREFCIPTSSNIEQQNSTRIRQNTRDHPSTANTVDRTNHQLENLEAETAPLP
Chain of UniProt P50750 (whole entry, looked up): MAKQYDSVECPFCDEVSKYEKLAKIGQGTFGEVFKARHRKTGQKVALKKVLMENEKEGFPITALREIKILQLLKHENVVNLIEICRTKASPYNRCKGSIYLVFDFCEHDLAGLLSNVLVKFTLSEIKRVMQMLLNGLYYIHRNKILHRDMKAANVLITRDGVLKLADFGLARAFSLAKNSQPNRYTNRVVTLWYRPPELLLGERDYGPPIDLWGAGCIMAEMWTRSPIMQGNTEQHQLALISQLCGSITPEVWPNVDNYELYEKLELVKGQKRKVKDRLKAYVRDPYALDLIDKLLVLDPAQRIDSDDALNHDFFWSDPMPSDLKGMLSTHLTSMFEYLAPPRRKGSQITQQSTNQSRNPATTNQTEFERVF
Chain of UniProt P43119 (whole entry, looked up): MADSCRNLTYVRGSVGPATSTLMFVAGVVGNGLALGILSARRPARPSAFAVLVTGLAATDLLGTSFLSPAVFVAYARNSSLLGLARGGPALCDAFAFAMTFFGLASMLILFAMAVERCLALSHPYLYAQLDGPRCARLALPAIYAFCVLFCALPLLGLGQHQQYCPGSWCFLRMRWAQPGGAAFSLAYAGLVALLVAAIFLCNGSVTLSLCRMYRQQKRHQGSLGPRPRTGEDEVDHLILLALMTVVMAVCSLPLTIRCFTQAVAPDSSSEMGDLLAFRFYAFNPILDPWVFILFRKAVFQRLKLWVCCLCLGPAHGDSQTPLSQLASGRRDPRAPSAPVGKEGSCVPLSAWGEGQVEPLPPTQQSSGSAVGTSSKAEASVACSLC
Chain of UniProt Q5VWZ2 (whole entry, looked up): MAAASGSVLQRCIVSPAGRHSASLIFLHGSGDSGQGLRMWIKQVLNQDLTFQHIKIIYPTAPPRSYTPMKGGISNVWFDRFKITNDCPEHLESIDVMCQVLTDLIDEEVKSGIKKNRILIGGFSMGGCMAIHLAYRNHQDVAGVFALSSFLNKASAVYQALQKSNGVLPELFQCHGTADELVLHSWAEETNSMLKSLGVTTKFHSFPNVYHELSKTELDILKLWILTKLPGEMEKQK

`C[C@H](C(=O)N[C@H]1COc2ccccc2[C@@H]1S(C)(=O)=O)c1ccc(F)cc1` gave an inhibition of 26% (protein kinase C, rat; enzyme activity; 10 µM, Eurofins selectivity panel).
`COc1cc2c(Oc3ccc4[nH]c(C)cc4c3F)ccnc2cc1OCC1(N)CC1`: “gingival bleeding incidence” 0% (paediatric refractory sarcoma patients; 8 mg).
For `Nc1c2c(nc3c1C(c1ccc(Cl)c(Cl)c1)c1ccc(OCC(=O)c4ccccc4)cc1O3)CCCC2` (stereo not drawn), the inhibition was 11% (APP; Aβ42 self-aggregation, inhibitor, thioflavin T fluorescence; 0.01 µM).
The inhibition of `CN(C(=O)n1cnc(-c2ccc[n+]([O-])c2)c1)C1CCCCC1` is reported as -13% (EGF receptor; concentration not given).
`COCc1c(-c2cc3cc(C)cc(OC)c3s2)c2c(N)ncnn2c1CN1CCNC(=O)C1` gave an inhibition of 8% (P2Y purinergic receptor; radioligand binding; 10 µM).
`CCc1ccc(Sc2cc(C(=O)NCCCN3CCCC(C)C3)c3ccccc3n2)cc1` (stereo not drawn) gave a maximum response of -1.68% (Vero-E6; CellTiter-Glo ATP; 72 h, first round 5-point; relative to: DMSO 0%, hyamine -100%, more negative, more toxic).
For `FC(F)(F)c1cccc(Nc2nc(NCCOc3ccccc3)nc3[nH]cnc23)c1`, the inhibition was 6% (Cyclin-dependent kinase 9, with cyclin T1 (CDK9, Homo sapiens, UniProt P50750); Z'-LYTE or Adapta; 5 µM).
`COc1cc(Nc2ncc(F)c(Nc3ccc4c(n3)NC(=O)C(C)(C)O4)n2)cc(OC)c1OC` has an inhibition of 86% (TLK2 (Homo sapiens, UniProt Q86UE8); KINOMEscan; 10 µM).
With `C[C@H]1N=C(c2ccccc2F)c2cc(Br)ccc2-n2cnc(C(=O)O)c21` the inhibition was 4.5 ± 7.3% (sigma receptor 1; binding; 10 µM).
For `O=C(Nc1ccc2c(c1)B(O)OC2)c1cccc(Oc2ccccc2)c1`, the inhibition was no more than 10% (Genome polyprotein NS2B-NS3 protease; enzyme activity, FRET; 50 µM, added: substrate 50 µM).
For `COc1ccc(N2C(=O)N(c3c(C)cccc3Cl)Cc3cnc(Nc4ccc(C5CCN(C)CC5)cc4OC)nc32)nc1`, the inhibition was 5% (HIPK4 (Homo sapiens, UniProt Q8NE63); kinase activity; 0.5 µM).
`CN[C@@]1(c2ccccc2Cl)CCCCC1=O` gave an inhibition of 58% (OPRM1 (Homo sapiens, UniProt P35372); radioligand binding, agonist, radioligand displacement; 30 µM).
With `CC[C@H](C)[C@H](NC(=O)[C@@H](NC(=O)[C@H](N)Cc1ccccc1)C(C)C)C(=O)N[C@@H](C)C(N)=O` the inhibition was 87.4% (APP; amyloid-beta aggregation, thioflavin T fluorescence; 0.5 µM, 24 h, added: 2 µM amyloid-beta).
`O=C(Nc1ccccc1)Nc1ccc2c(c1)B(O)OC2` has an inhibition of no more than 10% (Genome polyprotein NS2B-NS3 protease; enzyme activity, FRET; 50 µM, added: substrate 50 µM).
`O=C(Nc1cnccc1Cl)N1CCN(Cc2ccc3c(c2)OC(F)(F)O3)CC1` gave an inhibition of 10% (PTGIR (Homo sapiens, UniProt P43119); radioligand binding, inhibitor; 50 µM, human, added: [3H]iloprost).
For `C[C@@H](O)[C@@H](CO)NC(=O)[C@@H](CCCNC(=N)N)NC(=O)[C@@H]1CCCN1C(=O)[C@@H]1CSSC[C@H](NC(=O)[C@H](Cc2ccccc2)NC(=O)CN2CCN(CC(=O)O)CCN(CC(=O)O)CCN(CC(=O)O)CC2)C(=O)N[C@@H](Cc2ccc(O)cc2)C(=O)N[C@@H](Cc2ccccc2)C(=O)N[C@@H](CCC(N)=O)C(=O)N[C@@H](CC(N)=O)C(=O)N1` [gallium-68 labelled], the tissue uptake was 0.26 %ID/g (Wistar rat, liver; intravenous, 8 MBq, 60 min, group mean).
For `CC[C@H](C)[C@@H]1NC(=O)[C@@H]2CCCN2C(=O)[C@H](CC(C)C)NC(=O)[C@H](CC(C)C)NC(=O)CNC(=O)[C@@H](NC(=O)[C@@H](NC(=O)[C@H](CC(=O)O)NC(=O)CNC(=O)[C@@H](NC(=O)[C@H](C)NC(=O)CNC(=O)[C@H](CCCCN)NC(=O)[C@H](CC(C)C)NC(=O)[C@H](CC(C)C)NC(=O)[C@H](CCCCN)NC(=O)CNC(=O)[C@@H](NC(=O)[C@@H](N)CC(C)C)C(C)C)C(C)C)C(C)C)CSSC[C@@H](C(=O)O)NC1=O`, “log2 fold change” read -1.23 (RNA-seq, item: Mapkapk5; mouse, traumatic brain injury model, frontal cortex and hippocampus; dose not given; relative to: TBI alone).
`N=C(N)Nc1ccc(C(=O)Nc2ccc3c(c2)B(O)OC3)cc1` has an inhibition of 56 ± 1% (Genome polyprotein NS2B-NS3 protease; enzyme activity, FRET; 50 µM, added: substrate 50 µM).
`O=C(c1ccc(Cl)cc1)N1CCN2C(=O)N(OC(=O)N3CCOc4ccccc43)C(=O)C2C1` (stereo not drawn) — result for “mean protein ratio”: 1.04 (LYPLAL1 (Homo sapiens, UniProt Q5VWZ2); MS-based ABPP; SW-620 conditioned medium; 10 µM, 1 h, 37 °C; relative to: compound over DMSO, lower = more inhibition).
With `CN(c1ccc2c(c1)B(O)OC2)S(=O)(=O)c1ccc(Cl)cc1` the inhibition was no more than 10% (Genome polyprotein NS2B-NS3 protease; enzyme activity, FRET; 50 µM, added: substrate 50 µM).
`Nc1c2c(nc3c1C(c1cccc([N+](=O)[O-])c1)c1ccc(OCC(=O)c4ccc(Cl)cc4)cc1O3)CCCC2` (stereo not drawn) has an inhibition of 36% (APP; Aβ42 self-aggregation, inhibitor, thioflavin T fluorescence; 1 µM).
`C[C@H]1CN(c2n[nH]c3nc(N[C@H]4CC[C@H](NS(=O)(=O)CCC(F)(F)F)CC4)ncc23)CCO1` has a relative abundance of 1.1 (DDX20 (Homo sapiens, UniProt Q9UHI6); inhibitor, Kinobeads competition profiling; 0.16 µM; relative to: vehicle).
For `Nc1ncnc2c1ncn2[C@@H]1O[C@H](C[C@@H](N)CC[C@H](N)C(=O)O)[C@@H](O)[C@H]1O`, the inhibition was 98.2% (Genome polyprotein, NS5 methyltransferase domain (Zika virus, UniProt Q32ZE1); NS5 enzyme activity, inhibitor; 50 µM).
With `O=c1[nH]c2scc(-c3ccccc3)c2c(=O)n1O` the inhibition was 104% (Tripartite terminase subunit 3, C-terminal nuclease domain (Human betaherpesvirus 5, UniProt P16732); endonuclease activity, ELISA; 20 µM, added: dsDNA).
`CC[C@H](C)[C@H](NC(=O)[C@H](Cc1ccccc1)NC(=O)[C@H](CCC(=O)O)NC(=O)[C@H](CCCNC(=N)N)NC(=O)[C@H](C)NC(=O)[C@H](C)NC(=O)[C@H](CCC(N)=O)NC(=O)[C@H](CCC(=O)O)NC(=O)[C@H](CCC(=O)O)NC(=O)[C@H](CC(C)C)NC(=O)[C@H](Cc1ccc(O)cc1)NC(=O)[C@H](CO)NC(=O)[C@H](CO)NC(=O)[C@@H](NC(=O)[C@H](CC(=O)O)NC(=O)[C@H](CO)NC(=O)[C@@H](NC(=O)[C@H](Cc1ccccc1)NC(=O)[C@@H](NC(=O)CNC(=O)[C@H](CCC(=O)O)NC(=O)[C@H](C)NC(=O)CCc1c[nH]cn1)[C@@H](C)O)[C@@H](C)O)C(C)C)C(=O)N[C@@H](C)C(=O)N[C@@H](Cc1c[nH]c2ccccc12)C(=O)N[C@@H](CC(C)C)C(=O)N[C@H](C(=O)N[C@@H](CCCNC(=N)N)C(=O)NCC(=O)N[C@@H](CCCNC(=N)N)C(=O)N[C@@H](CCCCNC(=O)COCCOCCNC(=O)COCCOCCNC(=O)CC[C@H](NC(=O)CCCCCCCCCCCCCCCCC(=O)O)C(=O)O)C(=O)NCC(=O)NCC(=O)N[C@@H](CO)C(=O)N[C@@H](CCCCNc1c(NCCCCCN(O)C(=O)CCC(=O)NCCCCCN(O)C(=O)CCC(=O)NCCCCCN(O)C(C)=O)c(=O)c1=O)C(=O)O)C(C)C` [zirconium-89 labelled] has a tissue uptake of 0.19 %ID/g (rat, intestine; iv, 3 nmol/kg, 24 h, ex vivo).
`CCN(CC)CCNC(=O)c1ccc(-c2nc(CN3CCc4ccccc43)c(C)o2)cc1` has a maximum response of -2.86% (Vero-E6; CellTiter-Glo ATP; 72 h, second round 5-point; relative to: DMSO 0%, hyamine -100%, more negative, more toxic).
`O=C(Nc1cccnn1)N1CCC(=Cc2cccc(Oc3ccc(C(F)(F)F)cn3)c2)CC1` has an inhibition of 15% (RXRA (Homo sapiens, UniProt P19793); radioligand binding, inhibitor; 10 µM, human, added: [3H]9-cis-retinoic acid).

A few entries again:
`COc1cc2c(Oc3ccc4[nH]c(C)cc4c3F)ccnc2cc1OCC1(N)CC1`: “gingival bleeding incidence” 0% (paediatric refractory sarcoma patients; 8 mg).
For `Nc1c2c(nc3c1C(c1ccc(Cl)c(Cl)c1)c1ccc(OCC(=O)c4ccccc4)cc1O3)CCCC2` (stereo not drawn), the inhibition was 11% (APP; Aβ42 self-aggregation, inhibitor, thioflavin T fluorescence; 0.01 µM).
